Experimental data collected from several papers.
Each numbered part is a random draw from the data of one study; scales do not carry over between parts.

Sample 1
Target: Hepatocyte nuclear factor 3-beta, forkhead domain (FOXA2, Homo sapiens, UniProt Q9Y261, residues 142-269)
Method: protein-binding microarray
Molecule type: double-stranded DNA, one strand shown
Sample: in vitro
Concentration: not given
Notes: k-mer, scored over probes, only values ≥0.25
Reading: higher = stronger binding
Endpoint: E-score
Target sequence (chain): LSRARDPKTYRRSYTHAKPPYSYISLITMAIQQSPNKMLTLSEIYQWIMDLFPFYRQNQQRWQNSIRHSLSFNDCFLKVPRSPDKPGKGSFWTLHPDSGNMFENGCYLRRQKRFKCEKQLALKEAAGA
ATATATGC: 0.298
ATAAGGAT: 0.26
GTATCAAA: 0.28
ATAATAGG: 0.264
AATTTATA: 0.366
AATCAACA: 0.362
ATTCAAAC: 0.265
AGGATATG: 0.259

Sample 2
Target: Ras GTPase-activating protein-binding protein 1, full length (G3BP1, Homo sapiens, UniProt Q13283)
UniProt Q13283, sequence (whole entry, looked up): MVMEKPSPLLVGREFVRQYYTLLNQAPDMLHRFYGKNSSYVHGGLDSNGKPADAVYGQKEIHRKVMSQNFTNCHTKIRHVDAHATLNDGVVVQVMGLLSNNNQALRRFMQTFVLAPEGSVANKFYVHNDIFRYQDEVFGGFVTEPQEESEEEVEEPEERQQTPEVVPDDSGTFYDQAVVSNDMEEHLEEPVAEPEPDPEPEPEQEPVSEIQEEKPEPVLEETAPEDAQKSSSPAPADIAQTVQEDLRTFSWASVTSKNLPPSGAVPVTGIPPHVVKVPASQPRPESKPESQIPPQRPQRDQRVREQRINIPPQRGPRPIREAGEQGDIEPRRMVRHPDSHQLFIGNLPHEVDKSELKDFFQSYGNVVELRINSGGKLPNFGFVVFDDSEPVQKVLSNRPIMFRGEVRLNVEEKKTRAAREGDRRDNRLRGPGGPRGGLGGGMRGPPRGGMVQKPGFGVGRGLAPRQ
Method: RNA Bind-n-Seq
Molecule type: RNA
Sample: in vitro
Concentration: 200 nM
Notes: whole 134-nt RNA, ends assumed
Added: 150 mM KCl
Relative to: input library
Reading: higher = stronger binding
Endpoint: log2 enrichment
All sequences stand within: GGGAGUUCUACAGUCCGACGAUC … UGGAAUUCUCGGGUGUCAAGG
UCCUCAAGUCCUGUGCUACACAUCGUAUGUACCGAAUCGGCGGGGCGGCGGAAAGUAUUAUGUUACGCCGUUCGGAUCUGCACUUCCAGC: -0.355
CACAGACAACACGCACCCACACAGACACAGAGGGAAGGGGUUGGGAUGGGGACAGGGUGCACAGCAGGGCGGGGUAAGACCCCAGCCCCU: 1.96
GUCCUGUGCUACACAUCGUAUGUACCGAAUCAAAUUUUUAAACCCAAAUUUUUUUAAAAAAGUAUUAUGUUACGCCGUUCGGAUCUGCAC: -0.474
UAACUUUAGAGGAGGAUCUGAUGGAUAUGGCAGUGGACGUGGAUUUGGGGAUGGCUAUAAUGGGUGUGGAGGAGGACCUGGAGGUGGCAA: 0.53
AGUCCUGUGCUACACAUCGUAUGUACCGAAUCGGUUUUGGGGUUUUGGGGUUUUGGGAAAGUAUUAUGUUACGCCGUUCGGAUCUGCACU: -0.499
GUCCUGUGCUACACAUCGUAUGUACCGAAUCGGGGAAAAAGGAAAAAGGGAAAAAGGGAAAGUAUUAUGUUACGCCGUUCGGAUCUGCAC: -0.566
UCCUCAAGUCCUGUGCUACACAUCGUAUGUACCGAAUCGGAAAGGAGGUGGAAAGUAUUAUGUUACGCCGUUCGGAUCUGCACUUCCAGC: -0.745
CUGUGCUACACAUCGUAUGUACCGAAUCGGGGAAAAAAAGGAAAAAAAGGGGAAAAAAAGGGAAAGUAUUAUGUUACGCCGUUCGGAUCU: -0.654

Further values, each from its own experiment
Rel Rel homology region: Proto-oncogene c-Rel, Rel homology region (Rel, Mus musculus, UniProt P15307, residues 1-282)
UniProt P15307, sequence (1-282, looked up): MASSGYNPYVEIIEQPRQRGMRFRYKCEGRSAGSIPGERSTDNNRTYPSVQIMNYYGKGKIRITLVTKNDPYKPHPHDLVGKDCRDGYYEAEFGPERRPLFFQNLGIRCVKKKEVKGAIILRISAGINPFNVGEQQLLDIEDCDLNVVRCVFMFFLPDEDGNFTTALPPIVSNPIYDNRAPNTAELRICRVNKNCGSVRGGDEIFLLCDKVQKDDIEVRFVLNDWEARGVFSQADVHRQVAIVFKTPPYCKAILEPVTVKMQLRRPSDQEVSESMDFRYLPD
GGGGGTTTTT  dissociation half-life (Rel Rel homology region; surface plasmon resonance; double-stranded DNA, one strand shown, in vitro; 1 nM to 1 µM, 10-bp κB site, 1:1 kinetic fit, 10 °C; higher = slower dissociation): 58 s
O=C(NCCN1CCOCC1)c1ccc2c(c1)C(=O)c1ccc(Nc3ccc(F)c(NC(=O)c4ccccc4)c3)cc1CC2  tubulin stain change (HEK293T; high-content imaging; concentration not given, 24 h, recommended concentration): 91%
GGGGGGAGTA  dissociation half-life (Rel Rel homology region; surface plasmon resonance; double-stranded DNA, one strand shown, in vitro; 1 nM to 1 µM, 10-bp κB site, 1:1 kinetic fit, 10 °C; higher = slower dissociation): 4 s

Excerpt of the above (sample 2):
AGUCCUGUGCUACACAUCGUAUGUACCGAAUCGGUUUUGGGGUUUUGGGGUUUUGGGAAAGUAUUAUGUUACGCCGUUCGGAUCUGCACU: -0.499
